Measured values pooled from the literature.
Protocols differ between the studies behind these lines.

`CC1(C)SC2C(NC(=O)C(NC(=O)C3=C(O)CNC3=O)c3ccccc3)C(=O)N2C1C(=O)O` (stereo not shown) has an MIC of 50 mg/L (Escherichia coli; broth microdilution; JW0790-2 fiu deletion mutant; ferric iron uptake gene).
`CC[C@H](C)[C@H](NC(=O)[C@@H](NC(=O)[C@H](Cc1ccccc1)NC(=O)CNC(=O)[C@H](CCC(N)=O)NC(=O)[C@H](CCCCN)NC(=O)[C@H](C)N)C(C)C)C(=O)N[C@@H](Cc1ccc(O)cc1)C(=O)N[C@@H](CCCNC(=N)N)C(=O)N[C@H](C(=O)N[C@@H](CCCNC(=N)N)C(=O)N[C@H](C(=O)N[C@@H](CCCNC(=N)N)C(=O)N[C@@H](CCCNC(=N)N)C(=O)NCC(=O)N[C@@H](CC(N)=O)C(=O)N[C@@H](CCCNC(=N)N)C(=O)N[C@@H](CCCCN)C(N)=O)C(C)C)C(C)C` has an MIC of 3.1 µM (Enterobacter sp.; broth dilution; KCTC 2625).
`N=C(N)NCCC[C@H](NC(=O)[C@H](Cc1c[nH]c2ccccc12)NC(=O)[C@H](CCCNC(=N)N)NC(=O)[C@H](Cc1c[nH]c2ccccc12)NC(=O)[C@H](Cc1c[nH]c2ccccc12)NC(=O)[C@H](Cc1c[nH]c2ccccc12)NC(=O)[C@H](CCCNC(=N)N)NC(=O)[C@H](Cc1c[nH]c2ccccc12)NC(=O)[C@H](CCCNC(=N)N)NC(=O)CN)C(N)=O` has an MIC of 8 µM (Candida albicans; broth microdilution; alveolar fluid isolate, RPMI 1640-MOPS; 48 h, 30 °C).
For `CC[C@H](C)[C@H](N)C(=O)N[C@@H](CCCNC(=N)N)C(=O)N[C@H](C(=O)N[C@@H](Cc1c[nH]c2ccccc12)C(=O)N[C@@H](CCCCN)C(=O)N[C@@H](CCCCN)C(=O)N[C@@H](Cc1ccccc1)C(=O)N[C@H](C(=O)N[C@@H](CCCNC(=N)N)C(=O)N[C@@H](CCCCN)C(=O)N[C@@H](CCSC)C(=O)N[C@@H](CCCCN)C(=O)N[C@@H](C)C(=O)N[C@H](C(=O)N[C@@H](Cc1ccc(O)cc1)C(=O)N[C@@H](Cc1c[nH]cn1)C(N)=O)[C@@H](C)CC)C(C)C)C(C)C`, the MIC was 100 µM (Listeria monocytogenes; broth dilution; KCTC 13064).
The MIC of `C[C@H](NC(=O)[C@H](CCCNC(=N)N)NC(=O)[C@H](Cc1c[nH]c2ccccc12)NC(=O)[C@H](CCCNC(=N)N)NC(=O)[C@H](Cc1c[nH]c2ccccc12)NC(=O)[C@H](Cc1c[nH]c2ccccc12)NC(=O)[C@H](Cc1c[nH]c2ccccc12)NC(=O)[C@H](CCCNC(=N)N)NC(=O)[C@H](Cc1c[nH]c2ccccc12)NC(=O)[C@H](CCCNC(=N)N)NC(=O)CN)C(N)=O` is reported as 8 µM (Candida albicans; broth microdilution; CGMCC 2.209, RPMI 1640-MOPS; 48 h, 30 °C, with: ZnCl2 8 µM).
`CCCCCCCCCC(=O)N[C@@H](Cc1c[nH]c2ccccc12)C(=O)N[C@H](CC(N)=O)C(=O)N[C@@H](CC(=O)O)C(=O)N[C@@H]1C(=O)NCC(=O)N[C@@H](CCCN)C(=O)N[C@@H](CC(=O)O)C(=O)N[C@H](C)C(=O)N[C@@H](CC(=O)O)C(=O)NCC(=O)N[C@H](CO)C(=O)N[C@@H]([C@H](C)CC(=O)O)C(=O)N[C@@H](CC(=O)c2ccccc2N)C(=O)O[C@@H]1C` has an MIC of > 128 mg/L (Staphylococcus aureus; broth microdilution; VISA LIM strain 2, Mueller-Hinton broth, Mg2+ 10 mg/L; 16 h, with: Ca2+ 0 mM).
`CC(C)(C)Oc1ccc(CC2NC(=O)C(C(=O)NC(C(=O)NC3C(=O)N4C3SC(C)(C)C4C(=O)O)c3ccccc3)=C2O)cc1` (stereo not shown) gave an MIC of 25 mg/L (Escherichia coli; broth microdilution; Keio mutant JW2142-1).
For `CC[C@H](C)[C@H](NC(=O)[C@H](CCCCN)NC(=O)[C@H](CCCCN)NC(=O)[C@H](Cc1ccccc1)NC(=O)[C@@H](NC(=O)[C@@H](NC(=O)[C@H](CCCNC(=N)N)NC(=O)[C@H](Cc1ccccc1)NC(=O)[C@@H](NC(=O)[C@H](CCCCN)NC(=O)[C@H](CCCCN)NC(=O)[C@@H](N)CCSC)[C@@H](C)CC)C(C)C)[C@@H](C)CC)C(=O)N[C@@H](CC(C)C)C(=O)N[C@@H](CCCCN)C(=O)N[C@@H](CCCNC(=N)N)C(=O)N[C@@H](CC(C)C)C(=O)N[C@H](C(=O)N[C@H](C(=O)O)C(C)C)[C@@H](C)CC`, the MIC was 8 mg/L (Staphylococcus aureus; broth microdilution; ATCC 25923; with: 2 mM CaCl2).
For `CC(C)C[C@@H](NC(=O)[C@H](C)NC(=O)CNC(=O)[C@@H](NC=O)C(C)C)C(=O)N[C@@H](C)C(=O)N[C@@H](C(=O)N[C@H](C(=O)N[C@@H](C(=O)N[C@@H](Cc1c[nH]c2ccccc12)C(=O)N[C@H](CC(C)C)C(=O)N[C@@H](Cc1ccc2[nH]ccc2c1)C(=O)N[C@H](CC(C)C)C(=O)N[C@@H](Cc1c[nH]c2ccccc12)C(=O)N[C@@H](C(=O)N[C@@H](Cc1c[nH]c2ccccc12)C(=O)NCCO)C(C)C)[C@H](C)O)C(C)C)C(C)C`, the MIC was 1.1 µM (Listeria monocytogenes; broth microdilution; 10403S).
For `CC1(C)SC2C(NC(=O)C(NC(=O)C3=C(O)C(Cc4ccc([N+](=O)[O-])cc4)NC3=O)c3ccccc3)C(=O)N2C1C(=O)O` (stereo not shown), the MIC was 50 mg/L (Escherichia coli; broth microdilution; Keio mutant JW0146-2; 18 h, ferric hydroxamate uptake gene).
With `N=C(N)NCCC[C@H](NC(=O)CCCCCNC(=O)[C@H](CCCNC(=N)N)NC(=O)[C@H](CCCNC(=N)N)NC(=O)CCCCCNC(=O)[C@H](CCCNC(=N)N)NC(=O)[C@H](CCCNC(=N)N)NC(=O)CCCCCNC(=O)[C@H](CCCNC(=N)N)NC(=O)[C@H](CCCNC(=N)N)NC(=O)CCCCCNC(=O)[C@@H](N)CCCNC(=N)N)C(=O)NCCCCCC(=O)NCCC(=O)O` the MIC was > 192 µM (Escherichia coli; ATCC 25922; 1 h, 37 °C, after 25% fetal bovine serum).
`N=C(N)NCCC[C@H](NC(=O)CN)C(=O)N[C@@H](Cc1c[nH]c2ccccc12)C(=O)N[C@@H](CCCNC(=N)N)C(=O)N[C@@H](Cc1c[nH]c2ccccc12)C(=O)N[C@@H](Cc1c[nH]c2ccccc12)C(=O)N[C@@H](Cc1c[nH]c2ccccc12)C(=O)N[C@@H](CCCNC(=N)N)C(=O)N[C@@H](Cc1c[nH]c2ccccc12)C(=O)N[C@@H](CCCNC(=N)N)C(=O)N[C@@H](Cc1c[nH]c2ccccc12)C(N)=O` has an MIC of 4 µM (Candida albicans; broth microdilution; CGMCC 2.209, RPMI 1640-MOPS; 48 h, 30 °C, with: KCl 4.5 mM).
With `Oc1c(Cl)cc(Cl)cc1-c1[nH]c(Cl)c(Cl)c1Cl` the MIC was 16 µM (Providencia alcalifaciens; ATCC 9886).
For `CCN1CCN(C(=O)N[C@@H](C(=O)N[C@@H]2C(=O)N3[C@@H]2SC(C)(C)[C@@H]3C(=O)O)c2ccccc2)C(=O)C1=O`, the MIC was 3.12 mg/L (Escherichia coli; broth microdilution; Keio mutant JW2142-1).
With `CC(=O)N1CCN(c2ccc(OCC3COC(Cn4ccnc4)(c4ccc(Cl)cc4Cl)O3)cc2)CC1` (stereo not shown) the MIC was > 64 µM (Candida albicans; alveolar fluid clinical isolate; 48 h, 30 °C).
`CC1(C)S[C@@H]2[C@H](NC(=O)[C@H](N)c3ccccc3)C(=O)N2[C@H]1C(=O)O` has an MIC of 6.25 mg/L (Escherichia coli; broth microdilution; Keio mutant JW0146-2; 18 h, ferric hydroxamate uptake gene).
`CC(C)C[C@H](NC(=O)[C@H](CCCNC(=N)N)NC(=O)[C@H](Cc1c[nH]c2ccccc12)NC(=O)[C@H](CCCNC(=N)N)NC(=O)[C@H](Cc1c[nH]c2ccccc12)NC(=O)[C@H](Cc1c[nH]c2ccccc12)NC(=O)[C@H](Cc1c[nH]c2ccccc12)NC(=O)[C@H](CCCNC(=N)N)NC(=O)[C@H](Cc1c[nH]c2ccccc12)NC(=O)[C@H](CCCNC(=N)N)NC(=O)CN)C(N)=O` gave an MIC of 16 µM (Candida albicans; broth microdilution; 14936, RPMI 1640-MOPS; 48 h, 30 °C).
The MIC of `CC1(C)SC2C(NC(=O)C(NC(=O)C3=C(O)CN(c4ccccc4)C3=O)c3ccccc3)C(=O)N2C1C(=O)O` (stereo not shown) is reported as 100 mg/L (Escherichia coli; broth microdilution; Keio mutant JW5086-3; 18 h, ferrienterobactin permease gene).
`CC(C)C[C@H](NC(=O)[C@H](CCCNC(=N)N)NC(=O)[C@H](Cc1c[nH]c2ccccc12)NC(=O)[C@H](CCCNC(=N)N)NC(=O)[C@H](Cc1c[nH]c2ccccc12)NC(=O)[C@H](Cc1c[nH]c2ccccc12)NC(=O)[C@H](Cc1c[nH]c2ccccc12)NC(=O)[C@H](CCCNC(=N)N)NC(=O)[C@H](Cc1c[nH]c2ccccc12)NC(=O)[C@@H](N)CCCNC(=N)N)C(N)=O` has an MIC of 8 µM (Candida albicans; broth microdilution; SP3931, RPMI 1640-MOPS; 48 h, 30 °C).
The MIC of `CC1(C)SC2C(NC(=O)C(NC(=O)C3=C(O)C4(CC4)NC3=O)c3ccccc3)C(=O)N2C1C(=O)O` (stereo not shown) is reported as 50 mg/L (Escherichia coli; broth microdilution; Keio mutant JW5195-1; 18 h).
`N=C(N)NCCC[C@H](NC(=O)[C@H](Cc1c[nH]c2ccccc12)NC(=O)[C@H](CCCNC(=N)N)NC(=O)[C@H](Cc1c[nH]c2ccccc12)NC(=O)[C@H](Cc1c[nH]c2ccccc12)NC(=O)[C@H](Cc1c[nH]c2ccccc12)NC(=O)[C@H](CCCNC(=N)N)NC(=O)[C@H](Cc1c[nH]c2ccccc12)NC(=O)[C@@H](N)CCCNC(=N)N)C(=O)N[C@@H](Cc1ccccc1)C(N)=O` has an MIC of 8 µM (Candida albicans; broth microdilution; 14936, RPMI 1640-MOPS; 48 h, 30 °C).
With `CC[C@H](C)[C@H](N)C(=O)N[C@@H](CCCNC(=N)N)C(=O)N[C@H](C(=O)N[C@@H](Cc1c[nH]c2ccccc12)C(=O)N[C@@H](Cc1ccccc1)C(=O)N[C@H](C(=O)N[C@@H](CCCCN)C(=O)N[C@H](C(=O)N[C@@H](CCCNC(=N)N)C(=O)N[C@@H](CCCCN)C(=O)N[C@@H](Cc1c[nH]c2ccccc12)C(=O)N[C@@H](CCCCN)C(=O)N[C@@H](C)C(=O)N[C@H](C(=O)N[C@@H](Cc1ccc(O)cc1)C(=O)N[C@@H](Cc1c[nH]cn1)C(=O)N[C@H](C(N)=O)[C@@H](C)O)[C@@H](C)CC)C(C)C)[C@@H](C)CC)C(C)C` the MIC was 50 µM (Enterobacter sp.; broth dilution; KCTC 2625).

For quick reference, copied from above:
For `CC[C@H](C)[C@H](NC(=O)[C@H](CCCCN)NC(=O)[C@H](CCCCN)NC(=O)[C@H](Cc1ccccc1)NC(=O)[C@@H](NC(=O)[C@@H](NC(=O)[C@H](CCCNC(=N)N)NC(=O)[C@H](Cc1ccccc1)NC(=O)[C@@H](NC(=O)[C@H](CCCCN)NC(=O)[C@H](CCCCN)NC(=O)[C@@H](N)CCSC)[C@@H](C)CC)C(C)C)[C@@H](C)CC)C(=O)N[C@@H](CC(C)C)C(=O)N[C@@H](CCCCN)C(=O)N[C@@H](CCCNC(=N)N)C(=O)N[C@@H](CC(C)C)C(=O)N[C@H](C(=O)N[C@H](C(=O)O)C(C)C)[C@@H](C)CC`, the MIC was 8 mg/L (Staphylococcus aureus; broth microdilution; ATCC 25923; with: 2 mM CaCl2).
`CC[C@H](C)[C@H](NC(=O)[C@@H](NC(=O)[C@H](Cc1ccccc1)NC(=O)CNC(=O)[C@H](CCC(N)=O)NC(=O)[C@H](CCCCN)NC(=O)[C@H](C)N)C(C)C)C(=O)N[C@@H](Cc1ccc(O)cc1)C(=O)N[C@@H](CCCNC(=N)N)C(=O)N[C@H](C(=O)N[C@@H](CCCNC(=N)N)C(=O)N[C@H](C(=O)N[C@@H](CCCNC(=N)N)C(=O)N[C@@H](CCCNC(=N)N)C(=O)NCC(=O)N[C@@H](CC(N)=O)C(=O)N[C@@H](CCCNC(=N)N)C(=O)N[C@@H](CCCCN)C(N)=O)C(C)C)C(C)C` has an MIC of 3.1 µM (Enterobacter sp.; broth dilution; KCTC 2625).
With `CC[C@H](C)[C@H](N)C(=O)N[C@@H](CCCNC(=N)N)C(=O)N[C@H](C(=O)N[C@@H](Cc1c[nH]c2ccccc12)C(=O)N[C@@H](Cc1ccccc1)C(=O)N[C@H](C(=O)N[C@@H](CCCCN)C(=O)N[C@H](C(=O)N[C@@H](CCCNC(=N)N)C(=O)N[C@@H](CCCCN)C(=O)N[C@@H](Cc1c[nH]c2ccccc12)C(=O)N[C@@H](CCCCN)C(=O)N[C@@H](C)C(=O)N[C@H](C(=O)N[C@@H](Cc1ccc(O)cc1)C(=O)N[C@@H](Cc1c[nH]cn1)C(=O)N[C@H](C(N)=O)[C@@H](C)O)[C@@H](C)CC)C(C)C)[C@@H](C)CC)C(C)C` the MIC was 50 µM (Enterobacter sp.; broth dilution; KCTC 2625).
